Published values pooled from the literature.
Lines come from different studies, so protocols differ. Numbers after ± are the reported error.
ESR1: Estrogen receptor (ESR1, Homo sapiens, UniProt P03372)

| Structure (SMILES) | target | test | system | setting | scale | quantity | value |
| --- | --- | --- | --- | --- | --- | --- | --- |
| CC(C)CNC(=O)[C@H](Cc1ccccc1)NC(=O)[C@H](Cc1c[nH]c2ccccc12)NC(=O)[C@H](CCCNC(=N)N)NC(=O)OCC(C)C | E3 ubiquitin-protein ligase Mdm2, with p53 (MDM2, Homo sapiens, UniProt Q00987) | MDM2-p53 binding, inhibitor, competitive ELISA |  | concentration not given |  | activity | inactive |
| Cc1sc2c(c1C)C(c1ccc(Cl)cc1)=N[C@@H](CC(=O)NCCCCCCCCC(=O)N1CCN(C(=O)c3cc(Cc4n[nH]c(=O)c5ccccc45)ccc3F)CC1)c1nnc(C)n1-2 | BRD4/PARP1 (Homo sapiens, UniProt O60885+P09874) | PARP1-BRD4 complex formation | HEK293T | 50 nM |  | time to equilibrium | 40 min |
| O=C(Nc1cccc(C(=O)Nc2ccc(S(=O)(=O)O)c3cc(S(=O)(=O)O)cc(S(=O)(=O)O)c23)c1)Nc1cccc(C(=O)Nc2ccc(S(=O)(=O)O)c3cc(S(=O)(=O)O)cc(S(=O)(=O)O)c23)c1 | Neutrophil elastase (ELANE, Homo sapiens, UniProt P08246) | enzyme activity, inhibitor, chromogenic substrate hydrolysis |  | pH 7.4, 37 °C, 100 mM NaCl, with: substrate S-1384 |  | maximal inhibition | 62.7 ± 6.9% |
| O=C1CCC(N2C(=O)c3ccc(N4CCC(C(=O)N5CCC(CCN6CCC(CNC(=O)c7cccc(-c8noc(C(F)(F)F)n8)c7)(c7nc(-c8ccccc8)cs7)CC6)CC5)CC4)cc3C2=O)C(=O)N1 (stereo not drawn) | HDAC7 (Homo sapiens, UniProt Q8WUI4) | degrader, western blot | DHL6 | 3 µM, 12 h |  | maximum degradation | > 90% |
| CCN(CC)C(=O)c1ccc(O)c(OC)c1 | Heat shock protein HSP 90-alpha, N-terminal domain (HSP90AA1, Homo sapiens, UniProt P07900) | binding, ligand-observed NMR titration |  | ligand to protein ratio 125 |  | contrast | 63% |
| C[C@H](CCC(=O)N[C@@H](CCC(=O)Nc1cncc(F)c1)C(=O)O)[C@H]1CC[C@H]2[C@@H]3[C@H](O)C[C@@H]4C[C@H](O)CC[C@]4(C)[C@H]3CC[C@]12C | SLC10A2 (Homo sapiens, UniProt Q12908) | transport, substrate, LC-MS/MS | ASBT-MDCK cells |  |  | Kt | 4.3 µM |
| CCCCCCOc1ccc(C(=O)OCC[N+]2(C)CC=CCC2)cc1 (stereo not drawn) | CHRM5 (Homo sapiens, UniProt P08912) | antagonist, item: inositol phosphates | CHO | M5, with: carbachol |  | cooperativity factor | 0.0009 ± 0.0002 |
| CC(C)CCC[C@@H](C)[C@H]1CC[C@H]2[C@@H]3CC=C4C[C@@H](OS(=O)(=O)O)CC[C@]4(C)[C@H]3CC[C@]12C | Prothrombin (F2, Homo sapiens, UniProt P00734) | enzyme activity, inhibitor |  | 0 (unit not given), pH 7.4, 37 °C, no Tween, with: Spectrozyme TH |  | Hill slope | 1.3 ± 0.5 |
| COc1cc(-c2cnc3nc2NCCCNS(=O)(=O)c2cccc(c2)N3)ccc1F | FLT1 (Homo sapiens, UniProt P17948) | differential scanning fluorimetry |  | 10 µM | higher = stronger binding | thermal shift ΔTm | 6.3 K |
| O=C(NC[C@@H](Cc1ccc(F)cc1)N1CCC(O)(C(F)(F)F)CC1)C1(c2ccc(Cl)cc2)CCCC1 | TRPA1 (Homo sapiens, UniProt O75762, V875P) | calcium influx, agonist |  |  | baseline: V875P mutant over wild type | EC50 fold change | > 700 fold |
| CN1CCN(CC(=O)N2N=C3/C(=C/c4ccccc4)CCCC3C2c2ccccc2)CC1 (mixture of isomers) | ALOX15 (Homo sapiens, UniProt P16050) | enzyme activity, activator |  | 10 µM, with: docosahexaenoic acid 100 µM | baseline: no activator | initial rate increase | 25% |
| CC(=N)NCc1cccc(CN)c1 | Nitric oxide synthase 1 (Mus musculus, UniProt Q9Z0J4) |  | adult mouse hippocampal slices | 1 µM, with: EHNA 300 µM |  | NMDA-evoked cGMP accumulation | no effect |
| Nc1ncnc2c1ncn2[C@@H]1O[C@H](CO)[C@@H](O[C@H]2O[C@H](CO)[C@@H](OP(=O)(O)O)[C@H](OP(=O)(O)O)[C@H]2O)[C@H]1O | Inositol 1,4,5-trisphosphate-gated calcium channel ITPR1, IP3-binding core (Itpr1, Rattus norvegicus, UniProt P29994, R504Q) | binding, 3H-IP3 competition |  | IP3-binding core IBC^R504Q |  | Hill coefficient | 1.8 ± 0.7 |
| CC1=C(/C=C/C=C\C=C\C(C)=C\C=O)C(C)(C)CCC1 | Rhodopsin (RHO, Homo sapiens, UniProt P08100, P23H) | pharmacological chaperone, immunostaining, nonpermeabilized cells | 661W | 2.5 µM, 16 h | baseline: untreated cells | cell surface expression | ~6 fold |
| CNc1ccccc1C(=O)O[C@H]1C[C@H](n2cnc3c(N)ncnc32)O[C@@H]1COP(=O)(O)OP(=O)(O)O | Unconventional myosin-Va (Gallus gallus, UniProt Q02440, D297C/G292C/I296C/S293C/V295G) | FRET | compound complex | 15 °C, with: 4 mM EDTA |  | donor-acceptor distance | 20.9 Å |
| CCCNCC(=O)O | Albumin (ALB, Homo sapiens, UniProt P02768) | circular dichroism |  | 0.6 mM |  | β-sheet content | 15.3% |
| Cc1ncc(C[n+]2cccc(CCO)c2C)c(N)n1 | nicotinamide riboside transporter PnuT (Shewanella woodyi, UniProt B1KPL9) | binding, isothermal titration calorimetry | purified detergent-solubilized protein | 25 °C |  | ΔS | 41 ± 43 J/mol/K |
| C=C1C[C@]2(C(=O)OC)C=C(C(=O)Nc3cccc(C(=O)Nc4ccc(Nc5nccc(-c6cccnc6)n5)c(C)c4)c3)C(=O)[C@H]1C2 | MAPK8 (Homo sapiens, UniProt P45983, C116S) | surface plasmon resonance |  |  |  | association rate constant k1 | 129000 M⁻¹ s⁻¹ |
| Cc1ccc(Oc2cc(C(=O)NC3CC(F)C3)nc3ccsc23)cn1 (stereo not drawn) | CHRM1 (Homo sapiens, UniProt P11229) | positive allosteric modulator |  | concentration not given |  | PAM activity | inactive |
| CC(=O)N[C@H]1[C@@H](OP(=O)(O)OP(=O)(O)OC[C@H]2O[C@@H](n3ccc(=O)[nH]c3=O)[C@H](O)[C@@H]2O)O[C@H](CO)[C@H](O)[C@@H]1O | ABO (Homo sapiens, UniProt P16442, G235S/G268A/L266M/R176G) | binding, NMR |  |  |  | koff | 493 s⁻¹ |
| C=CCNC(=O)NC1CC=C(c2cc3c(Nc4cc5ncsc5cc4F)ncnc3s2)CC1 (racemic) | RIPK1 (Homo sapiens, UniProt Q13546) | enzyme activity |  | 1 µM | baseline: untreated | remaining activity | 102 ± 3% |
| Nc1ncnc2c1ncn2C1OC(COP(=O)(O)OP(=O)(O)OCC2OC(O)C(O)C2O)C(O)C1O (stereo not drawn) | TRPM2 (Nematostella vectensis, UniProt A7T1N0, Y264A) | channel activation, agonist, inside-out patch clamp |  | Y264A, 2.5 µM PIP2, with: 125 µM Ca2+ | baseline: wild type | EC50 fold increase | > 1000 fold |
| CCC(=C(c1ccc(O)cc1)c1ccc(OCCN(C)CCOCCOCCOCCOCCOCCOCCOCCN(C)CCOc2ccc(C(=C(CC)c3ccccc3)c3ccc(O)cc3)cc2)cc1)c1ccccc1 (mixture of isomers) | ESR1 | competitor, radioligand competition binding |  | concentration not given, with: [3H]estradiol | baseline: estradiol | relative binding affinity | 32.3 ± 8.1% |
| CC(=C(c1ccc(Cl)cc1)c1ccc(OCCN2CCOCC2)cc1)c1ccc(Cl)cc1 | ESR1 | reporter gene, agonist, yeast estrogen screen |  | 1 µM | baseline: DMSO | fold activation | 1.56 ± 0.09 fold |
| CSCC[C@H](NC(=O)[C@H](CC(C)C)NC(=O)[C@H](CCC(N)=O)NC(=O)[C@H](Cc1c[nH]c2ccccc12)NC(=O)[C@H](CC(C)C)NC(=O)[C@H](CCCNC(=N)N)NC(=O)[C@H](Cc1c[nH]cn1)NC(=O)[C@H](CO)NC(=O)[C@H](CC(C)C)NC(=O)[C@H](CC(N)=O)NC(=O)[C@H](CCC(N)=O)NC(=O)[C@@H](NC(=O)[C@H](CCC(N)=O)NC(=O)[C@@H]1CSSC[C@H](NC(=O)CNC(=O)[C@@H](NC(=O)[C@H](CCCNC(=N)N)NC(=O)[C@H](CC(C)C)NC(=O)[C@H](CC(C)C)NC(=O)[C@H](CCC(N)=O)NC(=O)[C@H](C)NC(=O)[C@H](CCC(N)=O)NC(=O)[C@@H](N)[C@@H](C)O)C(C)C)C(=O)N[C@@H](C(C)C)C(=O)N[C@@H](CC(C)C)C(=O)NCC(=O)N[C@@H]([C@@H](C)O)C(=O)N1)C(C)C)C(=O)NCC(=O)N1CCC[C@H]1C(=O)N[C@@H](C)C(=O)NCC(=O)N[C@@H](CCCNC(=N)N)C(=O)N[C@@H](CCC(N)=O)C(=O)N[C@@H](CC(=O)O)C(=O)N[C@@H](CO)C(=O)N[C@@H](C)C(=O)N1CCC[C@H]1C(=O)N[C@H](C(=O)N[C@@H](CC(=O)O)C(=O)N1CCC[C@H]1C(=O)N[C@@H](CO)C(=O)N[C@@H](CO)C(=O)N1CCC[C@H]1C(=O)N[C@@H](Cc1c[nH]cn1)C(=O)N[C@@H](CO)C(=O)N[C@@H](Cc1ccc(O)cc1)C(N)=O)C(C)C | Calcitonin-gene-related peptide receptor, CALCRL/RAMP1 (Homo sapiens, UniProt O60894+Q16602, Q45A) | cAMP production, agonist | cells expressing CLR Q45A mutant | with: hAM | baseline: wild-type receptor | Emax | 34.7 ± 9.56% |
| C/C(=N\OCCN(C)Cc1ccccc1)c1ccc(C(F)(F)F)cc1 | rat sigma-1 receptor | binding |  | with: phenytoin 250 µM | baseline: without over with phenytoin | Ki ratio | 5.9 |
| CCNC(=O)[C@H]1O[C@@H](n2cnc3c(NCCCNC(=O)CCCCCNC(=O)COc4ccc(/C=C/C5=[N+]6C(=Cc7ccc(-c8cccs8)n7[B-]6(F)F)C=C5)cc4)ncnc32)[C@H](O)[C@@H]1O | ADORA1 (Homo sapiens, UniProt P30542) | radioligand binding, whole-cell binding | CHO-A1 | 2 h, with: [3H]DPCPX | baseline: specific binding, 10 µM XAC | maximal inhibition | 55.4 ± 2.5% |
